Results pooled from the literature.
Lines come from different studies, so protocols differ. Several values in a cell are separate wells, animals, samples, runs or records. ± gives the spread as reported.
APP amyloid-beta fibrils: Amyloid-beta precursor protein, amyloid-beta fibrils (APP, Homo sapiens, UniProt P05067)
APP: Amyloid-beta precursor protein (APP, Homo sapiens, UniProt P05067)
APP amyloid-beta insoluble aggregates: Amyloid-beta precursor protein, amyloid-beta insoluble aggregates (APP, Homo sapiens, UniProt P05067)

Structure (SMILES) | target | assay | system | conditions | scale | measurement | result
CCC1CC2C(C)=CC3C(=O)CCCC3C=CC(C)=CC2C(=O)O1 (stereo not drawn) | APP amyloid-beta fibrils | thioflavin T, refers to: Aβ42 pre-formed fibrils |  | 50 µM |  | fibril dissociation | 20.3%
CC[C@H](C)[C@H](NC(=O)[C@@H](NC(=O)[C@@H](NC(=O)[C@@H](NC(=O)[C@@H](N)CCCCN)C(C)C)C(C)C)C(C)C)C(=O)N[C@H](C(N)=O)[C@@H](C)O | APP | fibril formation, ThT fluorescence |  | 1-fold of peptide, pH 7.4, room temperature, together with: amyloid-beta 10 µM | relative to: untreated | aggregation half-time | 114 ± 15%
CCC1CC2C(C)=CC3C(=O)C=CCC3C=CC(C)=CC2C(=O)O1 (stereo not drawn) | APP amyloid-beta fibrils | thioflavin T, refers to: Aβ42 pre-formed fibrils |  | 500 µM |  | fibril dissociation | 29.8%
CC[C@H](C)[C@H](NC(=O)[C@H](CCC(N)=O)NC(=O)[C@@H](NC(=O)[C@@H]1CCCN1[C@@H]1CN(C(=O)[C@H](CCCCN)NC(=O)[C@H](CC(N)=O)NC(=O)[C@@H](NC(=O)[C@@H](NC(=O)[C@H](CCC(N)=O)NC(=O)[C@@H](N)C(C)C)[C@@H](C)CC)[C@@H](C)CC)CC[C@H]1NS(=O)(=O)c1ccc(C)cc1)C(C)C)C(=O)N[C@H](C(=O)N[C@@H](Cc1ccc(O)cc1)C(=O)N[C@@H](CCCCN)C(N)=O)C(C)C | APP | fibril formation, ThT fluorescence |  | 1-fold of peptide, pH 7.4, room temperature, together with: amyloid-beta 10 µM | relative to: untreated | aggregation half-time | 127 ± 15%
O=C1c2sc(-c3ccc(N4CCC(CO)CC4)nc3F)nc2CCN1c1cccnc1 | APP amyloid-beta insoluble aggregates | radioligand filter binding | AD brain insoluble fraction | 175 nM | higher = more binding | specific binding | 1210 a.u. and 1500 a.u.
CCCCCCCCCCCCCCCC(=O)OCC(CSC[C@H](N)C(=O)N[C@@H](CO)C(=O)N[C@@H](CCCCN)C(=O)N[C@@H](CCCCN)C(=O)N[C@@H](CCCCN)C(=O)N[C@@H](CCCCN)C(=O)NCCCCCC(=O)N[C@@H](CCCCN)C(=O)N[C@@H](CC(C)C)C(=O)N[C@H](C(=O)N[C@@H](Cc1ccccc1)C(=O)N[C@@H](Cc1ccccc1)C(=O)N[C@@H](Cc1ccc2ccccc2c1)C(=O)O)C(C)C)OC(=O)CCCCCCCCCCCCCCC (stereo partly drawn) | Amyloid-beta precursor protein, fibrillar amyloid-beta (APP, Homo sapiens, UniProt P05067) | TEM |  | 2.0 eq, 3 h, fibril 3, together with: APP 20 µM |  | fibril diameter | 71.5 nm
Clc1ccc2c(c1)N(CCCN1CCN(CCn3cc(CN4CCCNCCN(Cc5cn(CCN6CCN(CCCN7c8ccccc8Sc8ccc(Cl)cc87)CC6)nn5)CCCNCC4)nn3)CC1)c1ccccc1S2.[Cu+2].[O-][Cl+3]([O-])([O-])[O-].[O-][Cl+3]([O-])([O-])[O-] | APP | amyloid fibril formation, inhibitor, thioflavin T |  | together with: 2.5 µM Aβ42 |  | lowest significant inhibitory concentration | ≥ 1 µM
CC[C@H](C)[C@H](NC(=O)[C@@H](NC(=O)[C@H](CCCCN)NC(=O)[C@@H](NC(=O)CNC(=O)[C@@H](N)CCCNC(=N)N)[C@@H](C)O)C(C)C)C(=O)N[C@@H](CC(C)C)C(=O)N[C@@H](Cc1c[nH]cn1)C(=O)N[C@@H](CC(C)C)C(N)=O | APP | fibril formation, ThT fluorescence |  | 1-fold of peptide, pH 7.4, room temperature, together with: amyloid-beta 10 µM | relative to: untreated | aggregation half-time | 106 ± 10%
COc1cc(/C=C/C(=O)C2=C(/C=C/c3ccc(O)c(OC)c3)NC(=S)NC2[c-]2cccc2)ccc1O.[Fe+2].c1cc[cH-]c1 (racemic) | Amyloid-beta precursor protein, Aβ1-40 fibrils (APP, Homo sapiens, UniProt P05067) | single-molecule localization microscopy |  | 100 µM, 1 h, room temperature, together with: amyloid beta 20 µM |  | fibril length | 0.55 ± 0.29 µm
O=c1cc(/C=C/c2ccc(N3CCCC3)cc2)oc(/C=C/c2ccc(N3CCCC3)cc2)c1 | APP | binding, fluorescence |  | 2 µM, 7.4 min, pH 10, Abeta pre-incubated 5 h, together with: 20 µM pre-incubated Abeta species |  | fluorescence enhancement | 2.6 fold
CC(C)C[C@H](NC(=O)CCS[C@H]1O[C@H](CO)[C@@H](O)[C@H](O)[C@H]1O)C(=O)N1CCC[C@H]1C(=O)N[C@@H](Cc1ccccc1)C(=O)N[C@@H](Cc1ccccc1)C(=O)N[C@@H](CC(=O)O)C(=O)N[C@@H](CC(=O)O)C(=O)N[C@@H](C)C(=O)N[C@@H](Cc1c[nH]cn1)C(=O)N[C@@H](CCCCN)C(N)=O | Amyloid-beta precursor protein, fibril (APP, Homo sapiens, UniProt P05067) | amyloid aggregation, inhibitor |  | 10 µM |  | inhibition | 73%
CC[C@H](C)[C@H](NC(=O)[C@@H](NC(=O)[C@@H](NC(=O)[C@@H](NC(=O)[C@H](CCCCN)NC(=O)[C@H](CCC(=O)O)NC(=O)[C@H](C)N)C(C)C)C(C)C)C(C)C)C(=O)N[C@H](C(=O)N[C@@H](CCCCN)C(N)=O)[C@@H](C)O | APP | fibril formation, ThT fluorescence |  | 10 µM, 42 h, pH 7.4, equimolar to peptide, together with: amyloid-beta 1-42 10 µM | relative to: untreated amyloid-beta | ThT fluorescence | 61 ± 13%
O=C1c2sc(-c3ccc(N4CCC(F)C4)nc3F)nc2CCN1c1cccnc1 (stereo not drawn) | APP amyloid-beta insoluble aggregates | radioligand filter binding | AD brain insoluble fraction | 150 nM | higher = more binding | specific binding | 782 a.u. and 460 a.u.
CC[C@H](C)[C@H](NC(=O)[C@@H](NC(=O)[C@H](CCCCN)NC(=O)[C@@H](N)[C@@H](C)O)C(C)C)C(=O)N[C@@H](CC(C)C)C(=O)N[C@@H](Cc1c[nH]cn1)C(N)=O | APP | fibril formation, ThT fluorescence |  | 1-fold of peptide, pH 7.4, room temperature, together with: amyloid-beta 10 µM | relative to: untreated | aggregation half-time | 84 ± 8%
CC[C@H](C)[C@@H](C(=O)N[C@H](C(=O)N(N)[C@@H](Cc1ccc(O)cc1)C(=O)N[C@@H](CCCCN)C(N)=O)C(C)C)N(N)C(=O)[C@H](CCC(N)=O)NC(=O)[C@@H](NC(C)=O)C(C)C | APP | aggregation, ThT fluorescence |  | up to 160 µM, together with: APP 40 µM |  | inhibition | no inhibition
